Measured values gathered from unrelated publications.
Parts stem from different laboratories: compare values within a part only.

Sample 1 — technique: protein-binding microarray; form: double-stranded DNA, one strand shown; medium: in vitro; tested at: 250 nM; setting: 60-bp whole probe; with: salmon DNA 0.4 mg/ml; relative to: random background probes; reading: higher = stronger binding; endpoint: log fluorescence; all sequences stand within: GCCTAGCAC … GTCTTGATTCGCTTGACGCTGCTG
Target: Interferon regulatory factor 5, full length, phosphomimetic (IRF5, Homo sapiens, UniProt Q13568-2, residues 1-514, K96S/S451D/S453D/S456D/S462D)
GACGGACTGGGACTTGGGACGTGCTAG: -0.875 z-score
GACGATATCAGACTAGAGACGTGCTAG: 0.325 z-score
CTAGGTTTCCTTTTCCTTTAGTGCTAG: 1.28 z-score
TTAGATCTCAGTATCGATTGGTGCTAG: 6.07 z-score
TTAGGTTTCAACTATCGGTTAGTGCTA: 7.29 z-score
TCAGGTAGCCTTATCCCTAAGTGCTAG: -0.495 z-score
GACGGTATCGGTCTTGGGACGTGCTAG: 5.08 z-score
CACGGACTGCTTTTCCTGACGTGCTAG: -0.33 z-score
TTAGGTCTCCTTCTCCTTTGGTGCTAG: 0.022 z-score
GACGGACTGGACTATCGGGACGTGCTA: 0.708 z-score
GGTACTCACCTCCAGGCTGAGTGCTAG: -0.492 z-score
GACGGACTGGGGTTTCGGTACGTGCTA: 4.41 z-score
CTGTGTTTCCTTGTACGTCGGTGCTAG: 0.565 z-score
ATATGTAAGATATCCATATGGTGCTAG: 0.165 z-score
TCAATTCTGAATTCGAAACTGTGCTAG: 1.73 z-score
ACACTACCTGACTTCAAACTGTGCTAG: 0.357 z-score
TGGAGAGCATATTCTGTGACGTGCTAG: -0.36 z-score
CTTTGCCTCATCTTGCAGGTAGTGCTA: 0.0837 z-score
GACGATTTCAGTTCCGACACGTGCTAG: 1.37 z-score

Sample 2 — technique: universal PBM; form: double-stranded DNA, one strand shown; medium: in vitro; tested at: not given; reading: higher = stronger binding; endpoint: E-score
Target: Sal-like protein 4, full length isoform B (SALL4, Homo sapiens, UniProt Q9UJQ4-2, residues 1-616)
Setting: 8-mer, flanks averaged, mean of replicates
Target sequence (chain): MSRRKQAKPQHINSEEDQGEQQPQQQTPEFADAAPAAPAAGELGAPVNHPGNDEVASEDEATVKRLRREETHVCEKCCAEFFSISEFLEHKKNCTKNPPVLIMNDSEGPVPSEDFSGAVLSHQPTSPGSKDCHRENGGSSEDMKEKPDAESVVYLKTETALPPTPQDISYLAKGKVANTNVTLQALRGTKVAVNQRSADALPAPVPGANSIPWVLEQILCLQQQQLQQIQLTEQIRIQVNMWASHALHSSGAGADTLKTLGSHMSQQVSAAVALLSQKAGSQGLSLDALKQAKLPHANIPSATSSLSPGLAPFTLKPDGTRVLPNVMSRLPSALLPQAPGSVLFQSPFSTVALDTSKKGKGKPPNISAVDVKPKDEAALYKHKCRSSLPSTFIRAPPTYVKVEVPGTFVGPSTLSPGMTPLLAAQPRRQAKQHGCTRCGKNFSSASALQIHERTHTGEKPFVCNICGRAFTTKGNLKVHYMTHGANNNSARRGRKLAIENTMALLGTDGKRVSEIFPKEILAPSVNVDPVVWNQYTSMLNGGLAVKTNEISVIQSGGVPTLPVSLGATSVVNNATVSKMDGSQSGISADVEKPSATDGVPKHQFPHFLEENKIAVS
AGTATGCA: 0.121
AGGTGACG: -0.237
CTACGTAG: 0.0637
AACGTCTT: 0.0349
CACGTGAG: -0.147
CCGCATTC: -0.126
GCAACGTA: 0.123
ACCCTGTC: -0.233
GACCAACC: -0.227
CGGTGACG: -0.0771
AGTGTGCG: -0.186
AAGTGACA: 0.189
CGTGACAC: -0.00847
AACACCAC: 0.00328
ATGTGGAG: -0.0135
ACTGCTAT: -0.00194
CAGTGTGA: -0.00139
CGTACCTA: -0.11
GGAATTCA: 0.0629
CCACTGAG: -0.267
AATTAAGC: 0.271
ATCAGTGC: -0.0506
AGTCTGAT: 0.0516
ATTAGCTC: 0.0689
CATCATGC: 0.0745

Sample 3 — technique: RNA Bind-n-Seq; form: RNA; medium: in vitro; tested at: 1 µM; setting: whole 134-nt RNA, ends assumed; with: 150 mM KCl; relative to: input library; reading: higher = stronger binding; endpoint: log2 enrichment
Target: Ras GTPase-activating protein-binding protein 1, C-terminal RGG region (G3BP1, Homo sapiens, UniProt Q13283)
Chain of UniProt Q13283 (whole entry, looked up): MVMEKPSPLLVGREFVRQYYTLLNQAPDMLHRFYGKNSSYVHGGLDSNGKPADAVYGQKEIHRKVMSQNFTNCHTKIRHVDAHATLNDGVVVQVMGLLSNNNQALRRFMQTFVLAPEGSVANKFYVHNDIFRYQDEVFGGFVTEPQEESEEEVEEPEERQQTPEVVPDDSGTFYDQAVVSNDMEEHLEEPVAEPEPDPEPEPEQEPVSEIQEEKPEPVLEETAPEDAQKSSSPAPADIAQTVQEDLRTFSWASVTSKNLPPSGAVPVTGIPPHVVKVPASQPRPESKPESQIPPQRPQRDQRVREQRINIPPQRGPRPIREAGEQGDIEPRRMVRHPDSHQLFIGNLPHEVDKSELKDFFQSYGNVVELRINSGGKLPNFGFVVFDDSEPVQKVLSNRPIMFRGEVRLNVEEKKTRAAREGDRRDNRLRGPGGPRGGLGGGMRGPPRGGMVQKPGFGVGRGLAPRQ
All sequences stand within: GGGAGUUCUACAGUCCGACGAUC … UGGAAUUCUCGGGUGUCAAGG
CUCAAGUCCUGUGCUACACAUCGUAUGUACCGAAUCGGGUGGGUUUGGGUGGGAAAGUAUUAUGUUACGCCGUUCGGAUCUGCACUUCCA: 1.99
GUCCUGUGCUACACAUCGUAUGUACCGAAUCGGGGUUUUUGGGUUUUUGGGUUUUUGGGAAAGUAUUAUGUUACGCCGUUCGGAUCUGCA: -0.124
UUCAUUCCCAAGGGAGGCCAUGUCUGGAGAUAGACCUUGAAUUUAAUAAAUUUUAGGCACUAUACCAUUUCAGUGGAGAAAAUUGUUGGG: -2.13
UCCUGUGCUACACAUCGUAUGUACCGAAUCGGGGAAAAAAAGGGGAAAGGGGUUUGGGGAAAGUAUUAUGUUACGCCGUUCGGAUCUGCA: 2.54
AAGUCCUGUGCUACACAUCGUAUGUACCGAAUCGGCCCCCGGGCCCCCGGCCCCCGGAAAGUAUUAUGUUACGCCGUUCGGAUCUGCACU: -1.57
UGGAGCACAGGGCGAGCUCUCCUCCGCCCUGCAGCCUCAGGUAAGGAUCCGGACCUUCACUGCUGCCCCAACUGGGGCUCCUCAGCUCGG: -0.83
UUCCUCAAGUCCUGUGCUACACAUCGUAUGUACCGAAUCGGCGGCGGGCGGAAAGUAUUAUGUUACGCCGUUCGGAUCUGCACUUCCAGC: -0.719
AAGUCCUGUGCUACACAUCGUAUGUACCGAAUCGGAAAAGGAAAAGGGAAAAGGGGAAAGUAUUAUGUUACGCCGUUCGGAUCUGCACUU: -1.6
AGUCCUGUGCUACACAUCGUAUGUACCGAAUCGGGUUUUUGGGAGGGUUUUUUUGGGAAAGUAUUAUGUUACGCCGUUCGGAUCUGCACU: 0.564

Sample 4 — technique: RNA Bind-n-Seq; form: RNA; medium: in vitro; tested at: 365 nM; relative to: no-protein control; reading: higher = stronger binding; endpoint: RBNS enrichment (R)
Target: RNA binding protein fox-1 homolog 2, RRM domain, GST-SBP tag (RBFOX2, Homo sapiens, UniProt O43251-10, residues 100-194)
Setting: natural RNA segment, single round, ends assumed
All sequences stand within: GGGAGUUCUACAGUCCGACGAUC … UGGAAUUCUCGGGUGCCAA
Target sequence (chain): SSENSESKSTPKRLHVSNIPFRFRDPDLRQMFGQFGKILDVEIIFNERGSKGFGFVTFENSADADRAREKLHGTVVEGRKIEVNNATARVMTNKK
UUUGUCAUCAGACAAGGACUUUGAUCCUGUCCCCUUUGGCAUGCGGGAAGCAGCCGCGGGGAGGUAAUGAAUUGUCUGUGGUAUCAUGUCAGCAGAGUCUCCAAGCCCCA: 0.545
AUAUAACUUCAUCAUGAAUAUGCUGUGAUCCUCGUUUGAUGGAAUUACGCAAGGAAAGAACGGGAAGAAAGGAUAUUUUGCUGCAAGAUUAAGUUACAGUUCUCAGUGGA: 0.705
UUCUGGCUUUCCUCUGCAGCCAGGGAAGUGGACAGGAAACUGGACCUUAGGGACACCCUGCAGAGUAUGUUCAGUGUCUCGUCUUGGUGUUUCACAGUUCCAUGGUGAUA: 0.474
CGCGGCGCCCCCGCCCGCGCAGUGACGUCUCCAGCCCCGCAGCCCGGCCCGGGCGUCCUCCGCCAGCUCCUGUGACCAGCGCGUCUCCCGAUGCUCUCCGCCGUGUUCGU: 0.376
AAUGAAUAUUAAAAGCAUGGAGAGGAAACAUGAGGAACAAUGAAUUUCAACAUAUGGCUUCAGAACAUGAAGAUGUUCUUGUAUGGAUUAUAGUAUCUAGUAUUCAAAAA: 4.06
UUUUAAAGUAGCUGUAAUUUUUAAAUAUUUCUAAACUUUUCUUAAACCACUAAAAUUAAGCUCUUACUACUUAGUCAACUAUCCUCAGCUGUAUUCGUACUCAAUUGUCA: 1.3
CUUCCAGAUUGCUGGUUCCAGAAGAUGUAAUUUGCCACUGUGUGCUGCACGGCUAGGGAGUGUCAUCUCAGCUGAAGGCCUCACCCAAGACAGGCAGACAGACAUGAACA: 0.311
ACCACACCUGGCUAAUUUUUUGUAUUUUUAGUAGAGACAGGGGUUUCUUCCAUGUUGCCCAGGCUGGUCUCGAACUCCUGGACUCAAGCAAUCCGCCCACCUUGACUUCC: 0.376

For quick reference, copied from above (sample 1):
TTAGGTTTCAACTATCGGTTAGTGCTA: 7.29 z-score
CTAGGTTTCCTTTTCCTTTAGTGCTAG: 1.28 z-score
TTAGATCTCAGTATCGATTGGTGCTAG: 6.07 z-score
GACGGACTGGGACTTGGGACGTGCTAG: -0.875 z-score
